Published values pooled from the literature.
Each numbered part is a random draw from the data of one study; scales do not carry over between parts. Changes are numbered by the printed parent chain.

Set 1 — technique: RNA Bind-n-Seq; molecule type: RNA; sample: in vitro; tested at: 20 nM; setting: 6-mer, flanks averaged, single round; added: 150 mM LiCl; baseline: input library; direction: higher = stronger binding
Target: TAR DNA-binding protein 43, full length, His tag (TARDBP, Homo sapiens, UniProt Q13148, residues 1-414)
`UCUGCA`: “6-mer enrichment (R)” 0.88.
Under “6-mer enrichment (R)”, `AUCAUG` is recorded as 0.866.
`GCAGCC`: “6-mer enrichment (R)” 0.965.
`ACUAUC`: “6-mer enrichment (R)” 0.833.
`UAUAUG`: “6-mer enrichment (R)” 1.08.
For `GUGCAU`, “6-mer enrichment (R)” read 1.12.
For `AUGAGG`, “6-mer enrichment (R)” read 1.14.
For `AGCGGA`, “6-mer enrichment (R)” read 0.984.

Set 2 — target: Sox, HMG box (Pigoraptor chileana); technique: Spec-seq; molecule type: double-stranded DNA, one strand shown; sample: in vitro; tested at: not given; setting: whole probe, mean of replicates; baseline: not given; direction: lower = stronger binding; all sequences stand within: GAGTCGTCTCGTCAGCAC … CCGTAGAGCACTCAGGTC
Construct (chain): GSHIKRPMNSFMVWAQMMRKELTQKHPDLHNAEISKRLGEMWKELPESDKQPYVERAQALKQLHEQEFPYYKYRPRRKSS
`TCTAGTT`: “relative binding energy” 0.128 ln ratio.
`GTCAGTT` — result for “relative binding energy”: 0.693 ln ratio.
Under “relative binding energy”, `AGATGTT` is recorded as -0.297 ln ratio.
Under “relative binding energy”, `CATCTCG` is recorded as 0.534 ln ratio.
For `GACAGTT`, “relative binding energy” read -0.0211 ln ratio.
`CATAGCT`: “relative binding energy” -0.211 ln ratio.
For `CATCCGC`, “relative binding energy” read 0.954 ln ratio.
`CATCAAC` — result for “relative binding energy”: 0.0822 ln ratio.

Set 3 — technique: protein-binding microarray; molecule type: double-stranded DNA, one strand shown; sample: in vitro; tested at: not given; direction: higher = stronger binding
Target: Max-binding protein MNT, bHLH-zipper, MAX partner unstated (MNT, Homo sapiens, UniProt Q99583, residues 220-300)
Setting: k-mer, scored over probes, only values ≥0.25
Target sequence (chain): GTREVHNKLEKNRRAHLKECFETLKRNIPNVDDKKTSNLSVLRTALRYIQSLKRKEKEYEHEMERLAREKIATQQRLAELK
`ACGCGTAG` has an E-score of 0.258.
The E-score of `ACGCGCAG` is reported as 0.254.
`GCATGGCA` has an E-score of 0.393.
With `ACACGAGT` the E-score was 0.396.
`ATTGCACG` has an E-score of 0.339.
The E-score of `ACGCGCGA` is reported as 0.257.
`CCTCGAGG` gave an E-score of 0.353.
`ATGTGGAC` gave an E-score of 0.258.

Mixed results
Starting sequence: PafA, mature enzyme, eGFP fusion (Elizabethkingia meningoseptica, UniProt Q9KJX5); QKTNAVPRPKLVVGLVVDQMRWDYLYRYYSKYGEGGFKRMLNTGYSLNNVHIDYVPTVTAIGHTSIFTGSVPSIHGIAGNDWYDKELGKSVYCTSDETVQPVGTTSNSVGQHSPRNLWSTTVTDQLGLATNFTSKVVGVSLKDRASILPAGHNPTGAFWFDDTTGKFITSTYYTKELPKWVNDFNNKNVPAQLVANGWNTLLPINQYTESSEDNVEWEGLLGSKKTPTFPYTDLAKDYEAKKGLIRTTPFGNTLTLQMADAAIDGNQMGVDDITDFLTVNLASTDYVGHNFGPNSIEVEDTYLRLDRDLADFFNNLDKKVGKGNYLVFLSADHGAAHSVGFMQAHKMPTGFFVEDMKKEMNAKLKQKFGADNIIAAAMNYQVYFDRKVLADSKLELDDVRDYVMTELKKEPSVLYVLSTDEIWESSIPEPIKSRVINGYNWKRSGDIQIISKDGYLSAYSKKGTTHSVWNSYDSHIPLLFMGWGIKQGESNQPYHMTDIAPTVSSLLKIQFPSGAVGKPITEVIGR
Under “oxyanion analog dissociation constant”, `F312V` is recorded as 1.95 µM (tungstate, free oxyanion; microfluidic competitive inhibition; in vitro, cell-free expressed; not given, derived from inhibition constants, unchanged parent 2230 nM; lower = stronger binding).

For quick reference, copied from above (set 3):
The E-score of `ACGCGCGA` is reported as 0.257.
`CCTCGAGG` gave an E-score of 0.353.
`ATGTGGAC` gave an E-score of 0.258.
